Assay results of several laboratories.
Numbered parts are unrelated; each lists some results of a single study.

Set 1
Target: RING finger protein unkempt homolog, zinc fingers 1-6, SBP tag (UNK, Homo sapiens, UniProt Q9C0B0, residues 30-357)
UniProt Q9C0B0, sequence (30-357, looked up): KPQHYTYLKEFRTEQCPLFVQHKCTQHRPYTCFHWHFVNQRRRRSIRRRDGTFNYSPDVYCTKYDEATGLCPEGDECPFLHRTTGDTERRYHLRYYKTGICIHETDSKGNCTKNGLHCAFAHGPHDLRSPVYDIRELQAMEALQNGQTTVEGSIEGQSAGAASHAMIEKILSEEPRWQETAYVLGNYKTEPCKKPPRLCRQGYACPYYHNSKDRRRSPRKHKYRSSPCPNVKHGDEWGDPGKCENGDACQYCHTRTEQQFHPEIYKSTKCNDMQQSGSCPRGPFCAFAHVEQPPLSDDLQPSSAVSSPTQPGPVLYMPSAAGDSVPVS
Technique: RNA Bind-n-Seq
Molecule type: RNA
Medium: in vitro
Concentration: 100 nM
Notes: RNA with constant flanks, vertebrate orthologous sites, ends assumed
Reference: input RNA pool
Direction: higher = stronger binding
Endpoint: bound/input enrichment
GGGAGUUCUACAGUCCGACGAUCGGUUGAUGUUCUGAAAAACCACCUAGUGAAAGAAGGUCGGGUAGAUGAAGAAAUUGCACUUAGAAUUAUCAAUGAGGGUGCUGCCAUCCUUCGGAGAGAGAAAACAAUGAUAGAAGUAGACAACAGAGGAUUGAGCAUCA: 0.778 ratio
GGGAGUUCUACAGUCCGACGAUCGUAAUGCAUUUUGCGACUUGGAUGUGGUCUGCACGGGAAGCUGCUGGCCCCUCCACAACACAUACAAUUUUUGUCUUUUUUUUAAGAAAUUAAAACUGAAUUAAUUUACUAAAACUGUAACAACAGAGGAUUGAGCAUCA: 0.253 ratio
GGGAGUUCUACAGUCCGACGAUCGCCACUGUAAUCUCCAUUUAUUUUUAUUUACCUAACUUUAUUAGAUUAUUCACUCCAGAAUGCCAUUUUUUGAUGGAACUGCUAUUUGACAGUUCUUAACUAAUUCCUCAUAAAGAAAUUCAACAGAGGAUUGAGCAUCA: 4.84 ratio
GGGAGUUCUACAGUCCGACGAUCUGACUCCGGAGGGGAGAGCUCACAAACUCAAAGGAAAACUAGUAGAGUUUCUAAUAAAGCUAGGAAACGGAAGGACAAUUUUACAAAUGAGCGAUUAGAAAUGAAACAAAAGGAAGGCGGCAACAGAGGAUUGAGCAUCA: 0.514 ratio
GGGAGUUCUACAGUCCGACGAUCGACCUCCUGAACCUCUAGCUUUCAAGCUGUGGCUGUUUUAGCUACCGGUUUUAUUUUCUUUAUAGUUUUUCCCUGUUUCCCGCCUUCUCUUCCCUGUUCCCAAGGUUUGACUCAUGGAUUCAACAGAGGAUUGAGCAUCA: 3.92 ratio
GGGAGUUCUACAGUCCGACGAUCUCCUCAACUUGUUCUAGCUUGUGAUCCUUCAAAGUUGGGUCAUACAUUAGUGCUAGAUACUAGAAAUUUUCACUUUUCCACUGAUCAGAGAGACAGACAUUAAAAACAAAAAUAGAAGAACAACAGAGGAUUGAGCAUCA: 1.87 ratio
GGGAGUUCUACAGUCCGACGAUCUGUGCUUAUACUCUUCUAGGGAAGAGAGGAAUUGGGGAAAACUGUCCCCUUCUUAUAGAUUAGCUUGUUUCUAAAUUAUGACCAAAAAAUAUUUUGCUAUUUCUUUCUUUAUAUAUGAACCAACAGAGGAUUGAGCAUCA: 1.43 ratio
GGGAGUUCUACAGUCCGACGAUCGCAGUGAAAAAGCAGCCCUUCUCCCAGCCCCCUUUUCACUAGGAGAUACGAACGUUUCCGUAGAAGAGCAAUUAAACUCAAUAAAUUUAUCUUUUCAGGAUGAUCCAGAUUCCAGUACCACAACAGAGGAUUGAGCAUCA: 1.11 ratio
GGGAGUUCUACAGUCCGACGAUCAAUGGCCUCCAACAGGCAAAUUCAGGGAGAGAUAGGCUUCAGGGAAUAUAUAUUUAAGAGGAGUGAUCGUGAAGUAUAAGCUUGAUAUAACUGAAUAAUUUGUGAGGGGUGAUGACAUUUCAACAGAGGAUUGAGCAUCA: 0.917 ratio
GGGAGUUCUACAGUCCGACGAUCGAGCUAAAGGAGUUAGCAUCUUUAUUUUUGUAUCAAAGAUAAAGGUUAUUUUGAAAUUAUUAGGAUUUUUACACAACUCUGAAAUCUGUUUGCUUUUGUAAACUAAUUGUUUGACCUAGGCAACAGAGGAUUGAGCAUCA: 0.93 ratio
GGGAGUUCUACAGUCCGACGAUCAUAGGAGCAGCAUAGGCUUUUUGAGCUUUGGGGAAAUGAGCUUUGUGUUUUAUAUUUAAAUGGGAUAUGUUUAUAUGAUGGGUGCUUUGAGUGUGAAUGCAGCAGGCUCUCCUCCAUUUUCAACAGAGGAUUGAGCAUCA: 1.26 ratio

Set 2
Target: RNA binding protein fox-1 homolog 2, RRM domain, GST-SBP tag (RBFOX2, Homo sapiens, UniProt O43251-10, residues 100-194)
Technique: RNA Bind-n-Seq
Molecule type: RNA
Medium: in vitro
Concentration: 365 nM
Notes: natural RNA segment, single round, ends assumed
Reference: no-protein control
Direction: higher = stronger binding
Endpoint: RBNS enrichment (R)
Construct (chain): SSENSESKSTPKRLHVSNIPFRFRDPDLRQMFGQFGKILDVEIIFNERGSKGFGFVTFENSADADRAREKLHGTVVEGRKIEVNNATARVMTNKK
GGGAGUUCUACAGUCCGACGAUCUUUCUACAACUGGAGUUUUUUUAUACAAUGUUCUUUGUCUCAAAAUAAAGCAAUGUGUUUUUUCGGACAUGCUUUUCUGCCACUCCAUAUUAAAACAUAUGACCAUUGAGUGGAAUUCUCGGGUGCCAA: 0.474
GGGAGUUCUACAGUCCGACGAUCCAAGUAACCAAGCUGUUGACUUUCUUACUACUUGCAGUAGCCUGUCCCCAACUUUUCCAUCCAGUGCUUAACCUAAAAAACUCCUUAACUCUGCCUUGACCUGAGGAAGAUGGAAUUCUCGGGUGCCAA: 1.23
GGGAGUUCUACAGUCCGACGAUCAGCCCUGCUAAGUGACUGACCACUGUUUAGAAUGUCCAGAAUCUGAUGUCCAUCUGUCCCUGUGUCUUCUGUCCUCUUUCAGCUAGUUUAGGCUUAUGCCUAGAGUCACCUGGAAUUCUCGGGUGCCAA: 0.609
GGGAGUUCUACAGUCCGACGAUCAUUUUAAAUACUCUACUUACAGUUGGCCCUCUGUGGUUAGUUCCACAUCUGUGGAUUCAACCAACCAAGGACGGAAAAUGCUUAAAAAAUAAUACAACAACAACAAAAAAUGGAAUUCUCGGGUGCCAA: 0.599
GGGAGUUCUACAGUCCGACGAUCCCCAGACUGACUUACACUAACCUAACUGCUCAGUGGCUGUCUAGAGACACUUUAGGAAGAUAAACUGAGCUUGAUCCUCAUCAUAUAGCCAGUUCCAUCACUCAGGUAGUUGGAAUUCUCGGGUGCCAA: 0.343
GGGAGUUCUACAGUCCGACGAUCGUAUCUCUUACAUCAGUAGCAUUUUUCUAAAACCUUAGUCAUCAGAUAUGCUUACUAAAUCUUCAGCAUAGAAGGAAGUGUGUUUGCCUAAAACAAUCUAAAACAAUUCCUGGAAUUCUCGGGUGCCAA: 0.332
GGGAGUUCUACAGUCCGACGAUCGCCAGCACUUUAUACCAACUCAGCAUUUAAGGGAAGUAUCUUAGAUUGCCUCCAUCUCAAUGUGAAUGCACCAGGCUGAGGGUUCCCUAGCGCCUUGAGUCAAGGCCACUUGGAAUUCUCGGGUGCCAA: 0.457
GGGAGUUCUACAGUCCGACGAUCACAUAACCAAGAAAGGAUUUUGACUUUGUCACAGUGACUAUUUAAAAUAAUCUAUUCGAAGUCCAAACCAAACACAAAGCCUGUGAUAUUUUAGGUUAUUAAGGUAACUGUGGAAUUCUCGGGUGCCAA: 0.321
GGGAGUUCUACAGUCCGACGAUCACAGGUGCAUGAGGGUUACACCCGUCACCUGGGUCUGCCGGGAUGGGUUGGGGGGGCAGGUGCCAGGCCUCACUGCUGUGAAUCUGCCACGCCUGGGGGUCCUAGAGGCUUGGAAUUCUCGGGUGCCAA: 0.515

Set 3
Target: Interferon regulatory factor 3, full length, phosphomimetic (IRF3, Homo sapiens, UniProt Q14653, residues 1-427, S386D/S396D/S398D/S402D/T404D/S405D)
Technique: protein-binding microarray
Molecule type: double-stranded DNA, one strand shown
Medium: in vitro
Concentration: 2540 nM top
Notes: 60-bp whole probe
With: salmon DNA 0.4 mg/ml
Reference: random background probes
Direction: higher = stronger binding
Endpoint: fitted relative affinity
All sequences stand within: GCCTAGCAC … GTCTTGATTCGCTTGACGCTGCTG
Target sequence (chain): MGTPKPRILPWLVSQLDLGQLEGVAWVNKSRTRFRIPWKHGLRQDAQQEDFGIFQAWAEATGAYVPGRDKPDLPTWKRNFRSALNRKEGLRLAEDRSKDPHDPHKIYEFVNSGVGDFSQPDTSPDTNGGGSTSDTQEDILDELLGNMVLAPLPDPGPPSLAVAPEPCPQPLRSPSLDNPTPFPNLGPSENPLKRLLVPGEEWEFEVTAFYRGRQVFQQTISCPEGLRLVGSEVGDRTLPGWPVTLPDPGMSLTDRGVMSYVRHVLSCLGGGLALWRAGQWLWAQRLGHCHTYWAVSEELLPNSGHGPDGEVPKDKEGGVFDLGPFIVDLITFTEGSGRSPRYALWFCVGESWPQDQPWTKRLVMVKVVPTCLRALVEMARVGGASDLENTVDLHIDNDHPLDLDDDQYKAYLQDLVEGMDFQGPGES
TGGAGAGCATATTCTGTGACGTGCTAG: -0.476 z-score
GACGGTATCGGTCTCAGGACGTGCTAG: 4.05 z-score
TTAGGTTTGCTTTTCCTTTAGTGCTAG: 2.84 z-score
GACGGATTGGACTATCGGGACGTGCTA: -0.0268 z-score
GACAGTATCCTTCTCCTGACGTGCTAG: 7.99 z-score
TCAGATTTTGCTTTCATACTGTGCTAG: 1.45 z-score
TCCCTTATAAATAGCACAGGGTGCTAG: 1 z-score
GACGGAATGCTTATCCTGACGTGCTAG: 0.00369 z-score
TTAGCTTCCCTTTTCCTTTAGTGCTAG: 4.71 z-score
GACGGTTTCCTTCACCTGACGTGCTAG: 4.11 z-score
CAGGAAATCAACTTTTTTTAAGTGCTA: -0.0836 z-score
GACAGTCTCCTTTTCCTGACGTGCTAG: 5.68 z-score
GACGGTATCCTTTTACTGACGTGCTAG: 7.21 z-score
GACGGGCTCGGACTGGGGACGTGCTAG: -1.06 z-score
GACGGACTGTTTTTCCTGACGTGCTAG: 0.492 z-score
TCAGAACTCAACTGTCTGACTGTGCTA: 0.173 z-score
GACGGTTTCGACTAGCGGGACGTGCTA: 2.57 z-score
CACGAACTGAGACTGGAGACGTGCTAG: -0.274 z-score

Set 4
Target: Histone acetyltransferase KAT6A, winged helix 2, GST fusion (KAT6A, Homo sapiens, UniProt Q92794, residues 85-181)
Technique: protein binding microarray
Molecule type: double-stranded DNA, one strand shown
Medium: in vitro
Concentration: not given
Notes: 8-mer, flanks averaged, mean of 2 arrays, mostly near background
Reference: not given
Direction: higher = stronger binding
Endpoint: E-score
Target sequence (chain): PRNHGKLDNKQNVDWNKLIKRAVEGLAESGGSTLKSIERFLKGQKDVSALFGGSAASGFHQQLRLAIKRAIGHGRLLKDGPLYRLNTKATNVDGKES
ATCTAATG: -0.0268
AAATGTAG: -0.132
AAGTGCAT: 0.0175
TCGGAAAA: 0.131
AAGCAATG: 0.0746
CATTCATA: 0.0857
ACGGACAT: -0.0964
ACTCCATA: -0.156
ATTTACTA: -0.0234
AGTTAGGA: -0.0362
GATTATAA: -0.0166
CATGTCAC: -0.117
GGCTGAAC: 0.139
TCCTACCA: -0.0271
ATTCGCTG: 0.00877
GCGTCCCC: 0.0231
CTTCTCCA: -0.118
AAAGTATT: -0.0443
CCACATCA: -0.00882
AGGTTTAT: 0.0248
AGAAGGCC: 0.0676
CGGGCCTA: -0.164
TAGCGCTA: -0.203
CCAATCGG: 0.0908
ACTGTACT: -0.283
